Measurements from different studies.

SMILES	test	system	conditions	how to read	Cmax
C[C@@H](Nc1cc(F)cc(F)c1)c1cc(C(=O)N(C)C)cc2c(=O)cc(N3CCOCC3)oc12		human	oral, 180 mg twice daily, day 1, 5:2 schedule, single dose, geometric mean		1650 ng/mL
COc1ncc(-c2nc3c(n2C(C)C)[C@H](c2ccc(Cl)cc2)N(c2cc(Cl)cn(C)c2=O)C3=O)c(OC)n1	LC-MS/MS, noncompartmental	human, plasma	oral, 120 mg, C1D1, high-dose, geometric mean		1040 ng/mL
C=CC(=O)N(C)CCOc1c(N)ncnc1-c1cc(F)cc(NC(=O)c2ccc(C3CC3)cc2F)c1C		human, whole blood	oral, 400 mg single dose		432 ng/mL
CC(C)[C@H](N)C(=O)NCCCS(=O)(=O)O		human, plasma	oral, 256.5 mg twice daily days 2-7, day 7, fasted, capsule		10000 ng/mL
COc1cc(N2CCC(N3CCN(C)CC3)CC2)ccc1Nc1ncnc(Nc2ccccc2S(=O)(=O)C(C)C)n1		human, dose escalation arm, plasma	oral, 25 mg, day 1, mean		49.7 ng/mL
CCn1cc(C(=O)N2CCOCC2)c(=O)c2cc(NC3Cc4ccccc4C3)cnc21		human, fed	oral suspension, 300 mg single dose, arithmetic mean		1570 ng/mL
O=C(COc1ccc(Cl)cc1)NC12CC(c3nnc([C@H]4C[C@@H](OC(F)(F)F)C4)o3)(C1)C2		healthy human volunteers fasted, plasma	oral, 15 mg single dose, geometric mean		169 nM
CN1C(=O)[C@@H](NC(=O)c2nnc(Cc3ccccc3)[nH]2)COc2cccnc21		human, plasma	oral, 50 mg once daily, day 14, geometric mean		1180 ng/mL
CCN1CCN(Cc2ccc(Nc3ncc(F)c(-c4cc(F)c5nc6n(c5c4)[C@H](C)CCC6)n3)nc2)CC1		human, plasma	300 mg single dose, mean		136 ng/mL
Cl.[2H]C([2H])([2H])CC(=O)c1cnc(NC(=O)C2CC2)cc1Nc1cccc(-c2ncn(C([2H])([2H])[2H])n2)c1OC	geometric mean	human	oral, 5 mg single dose, fasted, liquid		38.6 ng/mL
C=CCn1c(=O)c2cnc(Nc3ccc(N4CCN(C)CC4)cc3)nc2n1-c1cccc(C(C)(C)O)n1		human	oral, 150 mg twice daily, monotherapy lead-in, -5 days	geometric mean	703 nM

Some of these lines once more:
SMILES	test	system	conditions	how to read	Cmax
C[C@@H](Nc1cc(F)cc(F)c1)c1cc(C(=O)N(C)C)cc2c(=O)cc(N3CCOCC3)oc12		human	oral, 180 mg twice daily, day 1, 5:2 schedule, single dose, geometric mean		1650 ng/mL
